# Measured values from different studies.
# Cell line: HOP-62
Structure (SMILES),technique,tested at,time,notes,baseline,endpoint,value
CCCCN1CCN(c2ccc3[nH]c(-c4ccc5[nH]c(-c6ccc(OCC)c(OCC)c6)nc5c4)nc3c2)CC1,SRB,10 µM,48 h,,,growth percent,-69.7%
O=C(Nc1nnc2n3c(Cc4ccccc4)n[nH]c3nc(-c3ccc(Cl)cc3)c1-2)c1ccccc1,SRB,10 µM,,NCI60 single-dose screen,untreated,cell growth,97%
COc1ccc(OC)c(-c2nc3ccc(-c4nc5ccc(N6CCN(C)CC6)cc5[nH]4)cc3[nH]2)c1,SRB,10 µM,48 h,,,growth percent,103%
O=C1NC(c2ccccc2)(c2ccccc2)C(=O)N1Cc1cn(-c2cc3ccccc3oc2=O)nn1,NCI60 single-dose screen,10 µM,,,,growth percentage,77.1%
[Br-].c1ccc2cc(Cn3c[n+](Cc4ccc5ccccc5c4)c4ccccc43)ccc2c1,NCI60 five-dose screen,,,,,TGI,2.98 µM
CCCCCCCCCCCCCCCCCCOc1cccc(CC(=O)OCC[N+]2(C)CCCCC2)c1,SRB,10 µM,,,,growth inhibition,< 0%
Cc1cc(C)n(-c2nc(-c3ccc(Cl)cc3)c3c(NC(=O)c4ccccc4)nnc-3[nH]2)n1,SRB,10 µM,,NCI60 single-dose screen,untreated,cell growth,96.7%
CCCCCCCCCCCCCCCCCCOc1ccc(CC(=O)OCC[N+]2(C)CCCCC2)cc1,SRB,10 µM,,,,growth inhibition,< 0%
Cc1cc(=O)[nH]c(=O)n1Cc1cn(-c2cc3ccccc3oc2=O)nn1,NCI60 single-dose screen,10 µM,,,,growth percentage,89.4%
Cc1cc(=O)[nH]n1-c1nc(-c2ccc(Cl)cc2)c2c(NC(=O)c3ccccc3)nnc-2[nH]1,SRB,10 µM,,NCI60 single-dose screen,untreated,cell growth,85.5%
CCCCc1n(Cc2ccc3ccccc3c2)c2ccccc2[n+]1Cc1ccc2ccccc2c1.[Br-],NCI60 five-dose screen,,,,,TGI,2.55 µM
CCCN1CCN(c2ccc3[nH]c(-c4ccc5[nH]c(-c6ccc(OCC)c(OCC)c6)nc5c4)nc3c2)CC1,SRB,10 µM,48 h,,,growth percent,-64.9%
C#C[C@@]1(O)[C@@H](CO)O[C@@H](n2ccc3c(N)ncnc32)[C@@H]1O,SRB,,,NCI-60 screen,,TGI,7.91 µM
Cn1cncc1C1=CN(c2ncnc3[nH]cnc23)CCS1,,,,lung cancer,,GI50,27.5 µM
O=C(Nc1nnc2[nH]c(=S)[nH]c(-c3ccc(Cl)cc3)c1-2)c1ccccc1,SRB,10 µM,,NCI60 single-dose screen,untreated,cell growth,94.7%
CCCCN1CCN(c2ccc3nc(-c4ccc5nc(-c6cc(OC)ccc6OC)[nH]c5c4)[nH]c3c2)CC1,SRB,10 µM,48 h,,,growth percent,99.9%
CCN(CC)c1ccc(C=NNC(=O)CSc2nc3ccccc3c(=O)n2Cc2ccc(S(N)(=O)=O)cc2)c(O)c1,NCI five-dose screen,,,,,TGI,> 100 µM

# For quick reference, copied from above:
Structure (SMILES),technique,tested at,time,notes,baseline,endpoint,value
O=C1NC(c2ccccc2)(c2ccccc2)C(=O)N1Cc1cn(-c2cc3ccccc3oc2=O)nn1,NCI60 single-dose screen,10 µM,,,,growth percentage,77.1%
CCCCCCCCCCCCCCCCCCOc1ccc(CC(=O)OCC[N+]2(C)CCCCC2)cc1,SRB,10 µM,,,,growth inhibition,< 0%
